Results pooled from the literature.
Lines come from different studies, so protocols differ. ± gives the spread as reported.

CCCCCCCC/C=C\CCCCCCCCOP(O)(O)=S.N
time to disappearance of toxic signs (mouse; subcutaneous, 25 mg/kg): ≤ 1 h

CC(C)[C@H](NC(=O)CNC(=O)[C@H](CCC(N)=O)NC(=O)[C@H](C)N)C(=O)O
subjects with Probably related AE (healthy male volunteers; intravenous, 90 mg/kg/h, 2 h, together with: LPS 2 ng/kg): 0%

C[C@H]1N=C(c2ccccc2F)c2cc(Br)ccc2-n2cnc(C(=O)NCCS(=O)(=O)O)c21
cumulative excretion (LC-MS/MS; Swiss Webster mouse, female, urine; intraperitoneal, 750 µg parent drug, 0 to 24 h): 0.4 ± 0.1%

CC(C)C[C@@H](N)C(=O)NCC(=O)N[C@H](C)C(=O)N[C@H](CO)C(=O)N[C@H](Cc1c[nH]c2ccccc12)C(=O)N[C@H](Cc1c[nH]cn1)C(=O)N[C@H](CCCNC(=N)N)C(=O)N1CCC[C@@H]1C(=O)N[C@H](CC(=O)O)C(=O)N[C@H](CCCCN)C(=O)N[C@H](CS)C(=O)N[C@H](CS)C(=O)N[C@H](CC(C)C)C(=O)NCC(=O)N[C@H](Cc1ccc(O)cc1)C(=O)N[C@H](CCC(N)=O)C(=O)N[C@H](CCCCN)C(=O)N[C@H](CCCNC(=N)N)C(=O)N1CCC[C@@H]1C(=O)N[C@H](CC(C)C)C(=O)N1CCC[C@@H]1C(N)=O
measured concentration (LC-MS/MS; rat plasma extract; 5000 ng/mL, 4 h, 8 °C, autosampler storage): 4990 ± 174 ng/mL

CC[C@H](C)C(=O)N1CCC(NC(=O)Nc2ccc(OC(F)(F)F)c(F)c2)CC1
subjects with dyspnoea TEAE (healthy volunteers; oral, 8 mg single dose, 14 (unit not given)): 0%

Cc1ccnc(-c2cc(C)ccn2)c1.O.[C-]#[O+].[C-]#[O+].[C-]#[O+].[Re+]
capacity factor (RP-HPLC C18 column, measured: MeCN adduct; MeCN:water 40:60, 0.1% TFA; isocratic elution): 7.1

CC(=O)N(CCCc1cn(-c2ccc(CN3CCOCC3)cc2)nn1)CCNc1ccnc2cc(Cl)ccc12
CC50 (monkey cells): > 100 µM

CC(C)[C@H](NC(=O)CNC(=O)[C@H](CCC(N)=O)NC(=O)[C@H](C)N)C(=O)O
discontinued due to adverse events (human; intravenous infusion, 90 mg/kg/h, 2 h infusion): 0%

CC[C@H](C)[C@H](NC(=O)CNC(=O)[C@H](Cc1c[nH]cn1)NC(=O)[C@H](CC(C)C)NC(=O)CNC(=O)[C@H](CC(C)C)NC(=O)[C@H](CCCCN)NC(=O)[C@H](Cc1ccccc1)NC(=O)[C@H](CC(C)C)NC(=O)[C@H](CCCCN)NC(=O)CNC(=O)[C@H](Cc1c[nH]c2ccccc12)NC(=O)[C@H](Cc1ccccc1)NC(=O)CN)C(=O)NCC(=O)N[C@@H](CC(C)C)C(=O)N[C@@H](CC(C)C)C(=O)N[C@@H](Cc1c[nH]cn1)C(=O)N[C@@H](CC(C)C)C(=O)N[C@@H](Cc1c[nH]cn1)C(=O)N[C@@H](CC(C)C)C(N)=O
lethal concentration (mortality; zebrafish embryos, 4 hpf): 1 µM

CC(C)(CCCC/C=C/CCCCCC(C)(C)C(=O)O)C(=O)O
Cmax (beagle dog, plasma; 360 mg/kg, NOAEL dose, long-term GLP toxicity): 570 µg/mL

A few entries again:
CC[C@H](C)C(=O)N1CCC(NC(=O)Nc2ccc(OC(F)(F)F)c(F)c2)CC1
subjects with dyspnoea TEAE (healthy volunteers; oral, 8 mg single dose, 14 (unit not given)): 0%
